Assay results gathered from unrelated publications.
Parts stem from different laboratories: compare values within a part only. Substitutions count along the parent as printed.

Sample 1
Target: CCNE1, cyclin fold, Cln2 fusion (human)
Technique: yeast growth competition, sequencing
Sample: yeast
Setting: strong parent motif
Baseline: not given
Reading: higher = stronger binding
Measurement: normalised enrichment score
Starting sequence: RBL2 docking peptide (human); STTRRRLFVENDS
S1M: 5.53
D12N: 4.14
R4H: 1.2
L7S: 0.33
T2R: 6.16
R5G: -0.043
R4M: 2.06
T3W: 5.82
L7H: 0.142
R6P: -0.174
E10L: 1.85
N11T: 5.49
E10V: 3.83
S13Q: 5.21
E10Q: 3.39
R5A: -0.146
R4Q: 1.2
F8R: -0.116
T3H: 5.7

Sample 2
Target: RING finger protein unkempt homolog, zinc fingers 1-6, SBP tag (UNK, Homo sapiens, UniProt Q9C0B0, residues 30-357)
Chain of UniProt Q9C0B0 (30-357, looked up): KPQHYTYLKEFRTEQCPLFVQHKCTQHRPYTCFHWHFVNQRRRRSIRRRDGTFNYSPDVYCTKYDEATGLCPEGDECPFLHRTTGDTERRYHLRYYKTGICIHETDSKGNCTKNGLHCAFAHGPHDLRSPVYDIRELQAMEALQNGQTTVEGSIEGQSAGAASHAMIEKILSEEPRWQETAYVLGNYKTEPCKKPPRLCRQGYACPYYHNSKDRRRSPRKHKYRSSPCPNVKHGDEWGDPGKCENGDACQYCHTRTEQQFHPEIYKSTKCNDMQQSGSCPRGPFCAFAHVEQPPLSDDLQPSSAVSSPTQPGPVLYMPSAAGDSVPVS
Technique: RNA Bind-n-Seq
Molecule type: RNA
Sample: in vitro
Concentration: 100 nM
Setting: RNA with constant flanks, vertebrate orthologous sites, ends assumed
Baseline: input RNA pool
Reading: higher = stronger binding
Measurement: bound/input enrichment
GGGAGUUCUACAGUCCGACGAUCAGCCUCCCCGUUACCCAUGAAAUAGAACUUUUUAAAAUUGUGUUGCCACCACAUGUAAAAAACUUAGCAAUAUUAGAAUAAGAUGCUAAUGAAGUCAGAAAUUUUGCUCAUUGUUUUGAACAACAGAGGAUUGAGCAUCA: 1.94 ratio
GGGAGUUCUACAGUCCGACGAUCUUCACCACUCCUGGGUGCAUGAUUGAGGGUGAAGCAUCCACCAGCACUUCAAGGGGUCCAUAGUAUUUUUUUUUUUUUGCUGCCUCAAAGUCCCCAAAGCCUUCGAGCAGAAGUGGCAGUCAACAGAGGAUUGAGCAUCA: 3.27 ratio
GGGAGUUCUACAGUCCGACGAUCAUUCAAACCCGUGGUGCCAUGGCCUCAUGUGGAAGGAGUAGAAGUGGACUUAGAGUCUAUUAGAAGAAAAAACAAGGCCAAAAAUGAUCACGAGCACCAUGCUGGAGGAGAUUCCCAAAACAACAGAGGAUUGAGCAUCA: 0.407 ratio
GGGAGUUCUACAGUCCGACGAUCCAUGUCCUUGUUACUGUGAUACUUAAAAUAUCCACAGUACUCACUUUUUCCAAAUGAUUCUAGUAAUUGCCUAGACAUACCUUUCUCUUACCUGUUAUUUAUCAAUUUUUCCAGUAUUUUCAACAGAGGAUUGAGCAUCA: 1.33 ratio
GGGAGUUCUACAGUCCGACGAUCAUCCUUUCACACUGUCCCCGGCCAGGGUCGAGGACCAGAUGUUUCACCAAGGACCUGCAUUUCAAACAAUUUUUUUAAAUUGUUAUACAGGAAGAGAUGUGCUGAAAACAGCAUCUCAAACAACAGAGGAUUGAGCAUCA: 0.206 ratio
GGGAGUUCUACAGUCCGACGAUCCUGAAGCUUUGUGUCUGGCUGCACUUGCAUAAGCUGCUACAAAUAGAAUAAAGAAUUUCUUAGCCUGGAUCUAUCAUUUAGAUGCAUGGAAAAUGGGCUUUGCACACAGUGGGUUUGGAGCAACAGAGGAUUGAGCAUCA: 1.36 ratio
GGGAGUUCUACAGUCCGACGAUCAGUCAUGGAGAAGAAGAUACUAAAAAUAAUCUCAUGGCAUUGAUAUUAAUUUAUUUUUAUUAGUUUUCAAAAGUCAGGGUUCUUGUUUAUAAACAGCAGGUACUGACUCUUAAGGCAAAACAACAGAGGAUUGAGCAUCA: 0.441 ratio
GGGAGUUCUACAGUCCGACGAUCUGGGUUACUCCUAUUAUUAUCAAGUAGCUGGAAUUGUGAAGGUCGGAGUAGUUAGAUCUUUAGCUUUUGUUCCUUAUUUUUUUGUAUUACUAUCCAUGUGUAUAAAUUAUUGAUCAUGUUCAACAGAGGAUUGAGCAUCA: 1.83 ratio
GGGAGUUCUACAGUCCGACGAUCGUUGUGACCCAUUUAACAUACACAAGAAGCUAGCCAAAAAGAACCUGCACGUCAUUGACUUAGAUGAUGCCACUUUUCUGAGCGCCAAGUUUGGAAGACAGCUUGUACCUGGUUGGAAGCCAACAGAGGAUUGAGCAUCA: 0.556 ratio
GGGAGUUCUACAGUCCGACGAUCAUCCCUCAGUGACAGUAUGCCAUCUGUAGCCGAUUCCCACUCUAGUCAUUUUUCUGAAUUUAGUUGUUCUGACCUAGAAAGCAUGAAAACUUCUUGUAGUCAUGGUUCCAAUGAUUAUCACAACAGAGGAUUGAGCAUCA: 3.39 ratio
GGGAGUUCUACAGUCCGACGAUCAAAUAUACUUCAUGCCAUGGACUCCAUAUCGCACUGAUACUUUGAUAGAAUAUGCUUCUUUAGAGGACUUCCAAAAUGGACGCCAACAGACAACUUACAAACUUCCAAAUAGAGUGGAUGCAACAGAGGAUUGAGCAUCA: 1.81 ratio

Sample 3
Target: UBE2M UBC core domain (UniProt P61081)
Technique: yeast two-hybrid
Sample: yeast
Setting: mostly zero background
Baseline: not given
Reading: higher = stronger interaction
Measurement: lacZ reporter activity
B1: DTX1 RING domain (UniProt Q86Y01); chain QKVKNPPDEDCTICMERLVTASGYEGVLRHKGVRPELVGRLGRCGHMYHLLCLVAMYSNGNKDGSLQCPTCKAIYGEKTGTQ
B2: RNF24 RING domain (UniProt Q9Y225); chain KVKELNLHELCAVCLEDFKPRDELGICPCKHAFHRKCLIKWLEVRKVCPLCNMPVLQLAQLH
B3: RNF181 RING domain (UniProt Q9P0P0); chain VIRGSQAELKCPVCLLEFEEEETAIEMPCHHLFHSSCILPWLSKTNSCPLCRYELPTDDDTY
B4: RNF135 RING domain (UniProt Q8IUD6); chain PVWLAEDDLGCIICQGLLDWPATLPCGHSFCRHCLEALWGARDARRWACPTCRQGAAQQPHLR
B5: ZNRF3 RING domain (UniProt Q9ULT6); chain DTLSSSSTSDCAICLEKYIDGEELRVIPCTHRFHRKCVDPWLLQHHTCPHCRHNIIEQKGNP
B6: TRIM48 RING domain (UniProt Q8IWZ4); chain ISQVFQRELTCPICMNYFIDPVTIDCGHSFCRPCFYLNWQDIPILTQCFECIKTIQQRNLKT
Residues (chain): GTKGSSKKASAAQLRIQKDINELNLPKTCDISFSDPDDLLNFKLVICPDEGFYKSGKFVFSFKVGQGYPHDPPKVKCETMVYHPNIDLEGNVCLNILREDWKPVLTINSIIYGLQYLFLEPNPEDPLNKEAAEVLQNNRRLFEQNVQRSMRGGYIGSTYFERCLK
ALDRLEKLLRCSRCTNILREPVCLGGCEHIFCSNCVSDCIGTGCPVCYTPAWIQDLKI (BARD1 RING domain (UniProt Q99728)): 0
B1 (DTX1 RING domain): 0
NTAPSLTVPECAICLQTCVHPVSLPCKHVFCYLCVKGASWLGKRCALCRQEIPEDFLDK (RNF146 RING domain (UniProt Q9NTX7)): 0
B2 (RNF24 RING domain): 0
KEQLEKHNDICAICYQDMKSAVITPCSHFFHAGCLKKWLYVQETCPLCHCHLKNSSQLP (RNF145 RING domain (UniProt Q96MT1)): 0
B3 (RNF181 RING domain): 0
KITELNPHLMCVLCGGYFIDATTIIECLHSFCKTCIVRYLETSKYCPICDVQVHKTRPLL (BMI1 RING domain (UniProt P35226)): 0
QLRRLQEERTCKVCLDRAVSIVFVPCGHLVCAECAPGLQLCPICRAPVRSRVRTF (BIRC7 RING domain (UniProt Q96CA5)): 0
B4 (RNF135 RING domain): 0
B5 (ZNRF3 RING domain): 0
B6 (TRIM48 RING domain): 0

Sample 4
Target: Sal-like protein 4, full length isoform B (SALL4, Homo sapiens, UniProt Q9UJQ4-2, residues 1-616)
Technique: universal PBM
Molecule type: double-stranded DNA, one strand shown
Sample: in vitro
Concentration: not given
Setting: 8-mer, flanks averaged, mean of replicates
Reading: higher = stronger binding
Measurement: E-score
Target sequence (chain): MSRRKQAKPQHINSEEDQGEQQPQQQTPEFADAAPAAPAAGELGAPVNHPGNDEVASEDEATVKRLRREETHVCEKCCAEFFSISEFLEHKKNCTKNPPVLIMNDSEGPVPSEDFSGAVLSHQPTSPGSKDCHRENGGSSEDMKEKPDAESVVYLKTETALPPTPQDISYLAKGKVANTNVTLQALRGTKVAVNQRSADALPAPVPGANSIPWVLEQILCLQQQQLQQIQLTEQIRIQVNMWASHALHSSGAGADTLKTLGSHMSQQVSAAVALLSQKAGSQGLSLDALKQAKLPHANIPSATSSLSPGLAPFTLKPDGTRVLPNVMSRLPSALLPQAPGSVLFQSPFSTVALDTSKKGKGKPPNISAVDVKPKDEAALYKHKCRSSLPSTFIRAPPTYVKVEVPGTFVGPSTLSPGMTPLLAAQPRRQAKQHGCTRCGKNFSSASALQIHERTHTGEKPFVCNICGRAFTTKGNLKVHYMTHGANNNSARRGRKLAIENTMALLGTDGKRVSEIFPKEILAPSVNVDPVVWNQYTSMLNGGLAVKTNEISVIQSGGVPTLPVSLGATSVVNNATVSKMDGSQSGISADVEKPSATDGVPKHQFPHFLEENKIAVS
ACTAGGAT: 0.108
GAATTATA: 0.386
TCCGGCGA: -0.208
GGGTGGAC: -0.287
CTGTGGTC: -0.194
ATATTCCA: 0.335
GAACACCC: -0.246
CCCGGTAC: -0.243
CGTAAAAG: 0.144
TCCCAGGA: -0.292
GTGTTGCA: -0.062
GCTCAGGA: -0.0984
AAGCGCTT: 0.143
CTCGCCTC: -0.254
GTACTGCA: -0.0899
GTAGTGGA: 0.00058
GGGGCACC: -0.302
ACAAGGGT: 0.104
GCGATAGC: 0.0343
GGAATCCA: -0.105
CGCGTCTA: 0.0137

Sample 5
Target: CEBPE, bZIP domain (human)
Technique: DHFR protein complementation
Sample: yeast
Setting: single substitutions, most at no-binding floor
Baseline: wild-type JUN-FOS pair
Reading: higher = stronger binding
Measurement: binding fitness
Starting sequence: JUN, bZIP domain (human); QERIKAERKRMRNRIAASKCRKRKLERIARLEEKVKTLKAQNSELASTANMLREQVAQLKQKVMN; partner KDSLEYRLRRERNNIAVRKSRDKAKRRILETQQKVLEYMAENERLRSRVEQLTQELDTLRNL
K39A: -1.11 natural log
T48G: -1.47 natural log
S47G: -1.19 natural log
L59H: -1.54 natural log
T48W: -1.33 natural log
K39F: -1.37 natural log
R53W: -1.31 natural log
S43N: -1.05 natural log
A40D: -1.18 natural log
A29E: -1.14 natural log
L31S: -1.35 natural log
K36L: -1.13 natural log
M51A: -0.976 natural log

Sample 6
Target: ABI1, truncated, D143A, DHFR fusion (Arabidopsis thaliana)
Technique: DHFR PCA, deep sequencing
Sample: yeast
Setting: methotrexate growth selection, single substitutions
Added: (+)-ABA 200 µM
Baseline: wild-type fitted maximum
Reading: higher = stronger binding
Measurement: relative binding score
Starting sequence: PYL1, truncated, DHFR fusion (Arabidopsis thaliana); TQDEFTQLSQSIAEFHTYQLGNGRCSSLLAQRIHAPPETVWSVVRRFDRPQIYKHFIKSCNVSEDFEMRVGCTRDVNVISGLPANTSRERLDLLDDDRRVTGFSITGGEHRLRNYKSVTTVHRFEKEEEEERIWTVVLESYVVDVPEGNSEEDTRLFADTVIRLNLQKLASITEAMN; partner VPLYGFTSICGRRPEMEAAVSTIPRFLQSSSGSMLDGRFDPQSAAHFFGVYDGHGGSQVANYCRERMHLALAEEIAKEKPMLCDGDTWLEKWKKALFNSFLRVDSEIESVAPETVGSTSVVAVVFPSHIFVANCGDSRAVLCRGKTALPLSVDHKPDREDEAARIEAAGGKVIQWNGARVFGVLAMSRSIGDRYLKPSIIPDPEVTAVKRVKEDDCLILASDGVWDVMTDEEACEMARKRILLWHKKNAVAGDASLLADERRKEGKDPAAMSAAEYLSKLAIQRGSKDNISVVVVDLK
Y53Q: 31.8%
A175P: 90.1%
E130C: 106%
G23V: 69.8%
V161L: 89.3%
G148E: 81.3%
P36A: 89.2%
H110Q: 24%
Q10P: 94.5%
K116R: 107%
P37E: 86.8%

A few entries again (sample 1):
R5A: -0.146
S13Q: 5.21
T3H: 5.7
E10V: 3.83
T2R: 6.16
R5G: -0.043
R4Q: 1.2
E10L: 1.85
L7S: 0.33
R4H: 1.2
R6P: -0.174
F8R: -0.116
T3W: 5.82
L7H: 0.142
